{"data": "Measured values from different studies", "Genome polyprotein protease": "Genome polyprotein, protease (Coxsackievirus B3, UniProt P03313)", "Replicase polyprotein 1ab main protease": "Replicase polyprotein 1ab, main protease (Human coronavirus OC43, UniProt P0C6X6)", "Dihydrolipoyl dehydrogenase": "Dihydrolipoyl dehydrogenase (Mycobacterium tuberculosis, UniProt P9WHH9)", "DNA ligase A": "DNA ligase A (Mycobacterium tuberculosis, UniProt P9WNV1)", "note": "Compare with care: the assays were run in different laboratories. ± marks the error that the study gave.", "sequence of UniProt P9WHH9 (whole entry, looked up)": "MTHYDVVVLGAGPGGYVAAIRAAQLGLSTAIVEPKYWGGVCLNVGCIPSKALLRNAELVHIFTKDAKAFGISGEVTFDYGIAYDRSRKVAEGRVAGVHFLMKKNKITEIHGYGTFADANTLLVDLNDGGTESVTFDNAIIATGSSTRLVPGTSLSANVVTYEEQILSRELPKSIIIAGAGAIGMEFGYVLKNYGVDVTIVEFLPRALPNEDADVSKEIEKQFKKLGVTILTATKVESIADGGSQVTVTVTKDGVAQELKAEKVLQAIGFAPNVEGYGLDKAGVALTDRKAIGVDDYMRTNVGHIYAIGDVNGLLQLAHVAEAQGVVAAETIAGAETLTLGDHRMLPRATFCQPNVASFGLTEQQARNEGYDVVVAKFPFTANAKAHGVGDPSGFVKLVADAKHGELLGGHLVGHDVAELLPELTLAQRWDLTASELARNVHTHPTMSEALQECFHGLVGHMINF", "sequence of UniProt P03313 (whole entry, looked up)": "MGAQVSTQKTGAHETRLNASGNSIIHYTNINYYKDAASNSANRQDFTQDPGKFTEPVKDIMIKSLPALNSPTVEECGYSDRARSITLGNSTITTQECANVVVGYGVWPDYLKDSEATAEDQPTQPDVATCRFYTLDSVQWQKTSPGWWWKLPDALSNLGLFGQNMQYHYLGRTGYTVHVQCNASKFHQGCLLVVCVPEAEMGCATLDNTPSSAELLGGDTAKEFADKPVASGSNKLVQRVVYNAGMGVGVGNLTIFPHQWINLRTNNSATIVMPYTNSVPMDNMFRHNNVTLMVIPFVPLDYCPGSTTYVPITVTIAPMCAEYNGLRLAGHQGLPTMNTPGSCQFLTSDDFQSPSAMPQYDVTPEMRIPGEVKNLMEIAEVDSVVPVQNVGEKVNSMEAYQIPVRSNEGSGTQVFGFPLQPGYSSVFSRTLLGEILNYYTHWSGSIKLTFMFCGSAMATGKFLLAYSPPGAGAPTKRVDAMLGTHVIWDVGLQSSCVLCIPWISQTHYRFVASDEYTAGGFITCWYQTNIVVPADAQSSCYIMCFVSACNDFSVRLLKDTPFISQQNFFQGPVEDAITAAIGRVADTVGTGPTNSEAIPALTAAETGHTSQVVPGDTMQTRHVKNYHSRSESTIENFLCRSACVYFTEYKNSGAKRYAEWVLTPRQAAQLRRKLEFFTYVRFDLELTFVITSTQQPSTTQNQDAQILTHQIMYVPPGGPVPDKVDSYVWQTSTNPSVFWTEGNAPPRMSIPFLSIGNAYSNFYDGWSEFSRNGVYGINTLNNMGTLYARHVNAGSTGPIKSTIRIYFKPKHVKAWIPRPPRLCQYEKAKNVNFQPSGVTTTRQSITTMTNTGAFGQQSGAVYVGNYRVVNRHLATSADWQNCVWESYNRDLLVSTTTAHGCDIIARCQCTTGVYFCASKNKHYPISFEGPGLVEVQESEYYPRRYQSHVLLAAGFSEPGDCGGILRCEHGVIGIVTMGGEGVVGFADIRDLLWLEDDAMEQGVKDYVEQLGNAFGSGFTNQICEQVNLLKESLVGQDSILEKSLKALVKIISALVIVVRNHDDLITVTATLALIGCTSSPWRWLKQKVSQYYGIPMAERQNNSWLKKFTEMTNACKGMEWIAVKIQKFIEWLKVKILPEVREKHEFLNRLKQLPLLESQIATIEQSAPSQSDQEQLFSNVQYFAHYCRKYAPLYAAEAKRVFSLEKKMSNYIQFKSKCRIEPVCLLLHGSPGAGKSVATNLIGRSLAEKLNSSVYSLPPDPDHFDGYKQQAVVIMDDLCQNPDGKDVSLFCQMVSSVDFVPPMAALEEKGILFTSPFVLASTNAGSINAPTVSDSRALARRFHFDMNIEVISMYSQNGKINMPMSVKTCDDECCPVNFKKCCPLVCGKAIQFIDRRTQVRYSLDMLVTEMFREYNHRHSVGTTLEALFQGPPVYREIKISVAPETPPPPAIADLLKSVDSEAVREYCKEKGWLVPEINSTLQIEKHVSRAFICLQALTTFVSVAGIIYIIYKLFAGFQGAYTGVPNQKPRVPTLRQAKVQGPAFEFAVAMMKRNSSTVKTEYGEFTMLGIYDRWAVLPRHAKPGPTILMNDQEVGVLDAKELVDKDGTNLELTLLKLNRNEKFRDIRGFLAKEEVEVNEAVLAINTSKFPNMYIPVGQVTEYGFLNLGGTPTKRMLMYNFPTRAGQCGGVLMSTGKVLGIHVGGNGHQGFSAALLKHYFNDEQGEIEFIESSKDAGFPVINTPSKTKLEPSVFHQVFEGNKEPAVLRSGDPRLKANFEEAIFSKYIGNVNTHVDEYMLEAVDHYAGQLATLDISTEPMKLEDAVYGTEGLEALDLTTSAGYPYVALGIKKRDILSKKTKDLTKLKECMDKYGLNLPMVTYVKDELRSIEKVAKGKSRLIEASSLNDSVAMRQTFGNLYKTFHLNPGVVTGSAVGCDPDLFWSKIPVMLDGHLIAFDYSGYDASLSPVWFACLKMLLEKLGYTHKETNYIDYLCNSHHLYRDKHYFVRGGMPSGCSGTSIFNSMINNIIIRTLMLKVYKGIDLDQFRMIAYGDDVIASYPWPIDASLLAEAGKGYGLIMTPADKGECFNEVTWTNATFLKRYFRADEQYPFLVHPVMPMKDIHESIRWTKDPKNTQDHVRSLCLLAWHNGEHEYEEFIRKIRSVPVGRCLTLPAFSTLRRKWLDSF", "sequence of UniProt P9WG45 (whole entry, looked up)": "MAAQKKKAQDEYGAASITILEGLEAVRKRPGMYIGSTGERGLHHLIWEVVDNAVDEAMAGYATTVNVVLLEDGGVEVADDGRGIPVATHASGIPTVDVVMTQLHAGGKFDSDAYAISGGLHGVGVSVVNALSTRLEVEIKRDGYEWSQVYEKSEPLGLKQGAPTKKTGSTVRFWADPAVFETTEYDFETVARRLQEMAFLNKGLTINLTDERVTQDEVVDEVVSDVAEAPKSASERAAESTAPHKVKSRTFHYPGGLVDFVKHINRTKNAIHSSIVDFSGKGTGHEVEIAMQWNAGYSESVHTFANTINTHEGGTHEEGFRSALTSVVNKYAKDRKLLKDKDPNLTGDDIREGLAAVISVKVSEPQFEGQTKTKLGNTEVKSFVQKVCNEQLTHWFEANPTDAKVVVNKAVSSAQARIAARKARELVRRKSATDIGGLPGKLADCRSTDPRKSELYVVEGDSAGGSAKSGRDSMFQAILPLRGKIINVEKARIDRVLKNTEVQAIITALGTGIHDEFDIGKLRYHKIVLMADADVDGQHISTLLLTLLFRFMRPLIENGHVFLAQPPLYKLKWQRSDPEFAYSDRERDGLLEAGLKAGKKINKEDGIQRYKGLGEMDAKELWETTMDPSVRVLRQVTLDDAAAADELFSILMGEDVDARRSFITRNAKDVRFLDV", "sequence of UniProt A0QZ49 (whole entry, looked up)": "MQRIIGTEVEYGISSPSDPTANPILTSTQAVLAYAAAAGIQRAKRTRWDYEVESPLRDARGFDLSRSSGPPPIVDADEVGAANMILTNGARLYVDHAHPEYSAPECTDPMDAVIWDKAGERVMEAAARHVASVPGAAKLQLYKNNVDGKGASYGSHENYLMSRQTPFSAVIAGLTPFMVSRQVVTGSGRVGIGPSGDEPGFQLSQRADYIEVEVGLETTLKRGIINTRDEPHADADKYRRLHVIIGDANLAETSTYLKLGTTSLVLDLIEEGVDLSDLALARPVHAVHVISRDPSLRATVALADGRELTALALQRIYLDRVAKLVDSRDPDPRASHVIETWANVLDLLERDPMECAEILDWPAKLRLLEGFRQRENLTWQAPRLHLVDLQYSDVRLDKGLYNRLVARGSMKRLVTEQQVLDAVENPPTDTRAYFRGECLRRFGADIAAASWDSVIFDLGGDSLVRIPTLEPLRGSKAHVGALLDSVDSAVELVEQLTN", "sequence of UniProt P57059 (whole entry, looked up)": "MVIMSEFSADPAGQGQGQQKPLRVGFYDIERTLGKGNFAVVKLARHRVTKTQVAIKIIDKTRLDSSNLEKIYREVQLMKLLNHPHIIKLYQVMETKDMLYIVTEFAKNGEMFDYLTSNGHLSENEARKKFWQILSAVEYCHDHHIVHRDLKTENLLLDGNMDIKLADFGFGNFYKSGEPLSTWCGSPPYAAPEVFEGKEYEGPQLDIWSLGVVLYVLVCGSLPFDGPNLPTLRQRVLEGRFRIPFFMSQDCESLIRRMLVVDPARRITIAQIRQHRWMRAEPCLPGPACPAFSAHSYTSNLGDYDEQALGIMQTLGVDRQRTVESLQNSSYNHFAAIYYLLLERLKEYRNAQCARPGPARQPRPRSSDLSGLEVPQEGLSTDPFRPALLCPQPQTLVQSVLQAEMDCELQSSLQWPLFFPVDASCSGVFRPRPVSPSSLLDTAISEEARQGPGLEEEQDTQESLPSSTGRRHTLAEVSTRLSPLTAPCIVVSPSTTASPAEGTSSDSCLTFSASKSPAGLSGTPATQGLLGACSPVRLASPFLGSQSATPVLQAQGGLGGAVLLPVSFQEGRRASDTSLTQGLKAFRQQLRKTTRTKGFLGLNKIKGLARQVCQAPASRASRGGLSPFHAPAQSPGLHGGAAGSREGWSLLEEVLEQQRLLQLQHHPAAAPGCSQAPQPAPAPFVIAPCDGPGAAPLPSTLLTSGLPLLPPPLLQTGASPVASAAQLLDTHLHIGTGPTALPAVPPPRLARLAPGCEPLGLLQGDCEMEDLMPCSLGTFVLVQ", "sequence of UniProt P9WQ81 (whole entry, looked up)": "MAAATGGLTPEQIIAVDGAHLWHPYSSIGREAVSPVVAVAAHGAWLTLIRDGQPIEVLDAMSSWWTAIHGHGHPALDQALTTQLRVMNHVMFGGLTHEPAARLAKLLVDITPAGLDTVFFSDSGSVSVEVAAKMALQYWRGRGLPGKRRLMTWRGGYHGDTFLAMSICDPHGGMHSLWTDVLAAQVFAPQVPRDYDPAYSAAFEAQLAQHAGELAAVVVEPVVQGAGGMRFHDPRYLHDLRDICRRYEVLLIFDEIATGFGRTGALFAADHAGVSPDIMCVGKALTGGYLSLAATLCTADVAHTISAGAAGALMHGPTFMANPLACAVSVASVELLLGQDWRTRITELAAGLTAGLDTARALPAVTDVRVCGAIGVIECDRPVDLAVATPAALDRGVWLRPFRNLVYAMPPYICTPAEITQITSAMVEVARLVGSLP"}
{"Structure (SMILES)": "C=C(C)C1C2OC(=O)C1C1(O)CC3OC34C(=O)OC2C14C (stereo not shown)", "target": "GABA-A receptor; GABA-A site (alpha1/beta2 interface) (Homo sapiens, UniProt P14867+P47870, V284A)", "assay": "ion current, two-electrode voltage clamp", "conditions": "oocytes", "IC50 [µM]": 24.5}
{"Structure (SMILES)": "CCCn1c(NCc2ccc(N3N=C(c4ccccc4)CC3c3ccccc3)cc2)nc2ccccc21 (stereo not shown)", "target": "Genome polyprotein protease", "assay": "enzyme activity, inhibitor", "IC50 [µM]": 6.1}
{"Structure (SMILES)": "CC1C(=NOCc2cc(-c3ccc(Cl)cc3)no2)C(C)C(c2ccc(Cl)cc2)OC1c1ccc(Cl)cc1 (stereo not shown)", "target": "DNA gyrase subunit B, with GyrA (gyrB, Mycobacterium tuberculosis, UniProt P9WG45)", "assay": "ATPase activity, inhibitor", "IC50 [µM]": 9.87}
{"Structure (SMILES)": "CC[C@H](C)[C@H](NC(=O)[C@H](CO)NC(=O)[C@H](Cc1ccc(O)cc1)NC(=O)[C@H](CC(=O)O)NC(=O)[C@H](CO)NC(=O)[C@@H](NC(=O)[C@H](Cc1ccccc1)NC(=O)[C@@H](NC(=O)CNC(=O)[C@H](CCC(=O)O)NC(=O)[C@H](C)NC(=O)[C@@H](N)Cc1ccc(O)cc1)[C@@H](C)O)[C@@H](C)CC)C(=O)N[C@@H](C)C(=O)N[C@@H](CCSC)C(=O)N[C@@H](CC(=O)O)C(=O)N[C@@H](CCCCN)C(=O)N[C@H](C(=O)N[C@@H](CCCNC(=N)N)C(=O)N[C@@H](CCC(N)=O)C(=O)N[C@@H](CCC(N)=O)C(=O)N[C@@H](CC(=O)O)C(=O)N[C@@H](Cc1ccccc1)C(=O)N[C@H](C(=O)N[C@@H](CC(N)=O)C(=O)N[C@@H](Cc1c[nH]c2ccccc12)C(=O)N[C@@H](CC(C)C)C(=O)N[C@@H](CC(C)C)C(=O)N[C@@H](C)C(=O)N[C@@H](CCC(N)=O)C(=O)N[C@@H](CCCCN)C(=O)NCC(=O)N[C@@H](CCCCN)C(=O)N[C@@H](CCCCN)C(=O)N[C@@H](CC(N)=O)C(=O)N[C@@H](CC(=O)O)C(=O)N[C@@H](Cc1c[nH]c2ccccc12)C(=O)N[C@@H](CCCCN)C(=O)N[C@@H](Cc1c[nH]cn1)C(=O)N[C@@H](CC(N)=O)C(=O)N[C@@H](CC(C)C)C(=O)N[C@H](C(=O)N[C@@H](CCC(N)=O)C(=O)O)[C@@H](C)O)C(C)C)[C@@H](C)CC", "target": "Gastric inhibitory polypeptide receptor (Mus musculus, UniProt Q0P543)", "conditions": "4 h, 4 °C", "IC50 [µM]": 0.000251}
{"Structure (SMILES)": "C=CC(=O)NC(CC(=C)C)C(=O)N1CC(C(=O)NC(Cc2ccccc2)C(=O)NC)C(c2cccc(C(F)(F)F)c2)C1 (stereo not shown)", "target": "Replicase polyprotein 1ab main protease", "IC50 [µM]": 37.4}
{"Structure (SMILES)": "O=C(Cc1nc2cc(Cl)c(Cl)cc2nc1CC(=O)c1cccnc1)c1cccnc1", "target": "Adenosylmethionine-8-amino-7-oxononanoate aminotransferase (Mycobacterium tuberculosis, UniProt P9WQ81)", "assay": "inhibitor, biochemical", "IC50 [µM]": 175}
{"Structure (SMILES)": "COc1cc(CN2CCN(C)CC2)ccc1Nc1ncc2c(n1)N(C13CC4CC(CC(C4)C1)C3)C(=O)N(c1c(C)cccc1C)C2", "target": "Serine/threonine-protein kinase SIK3 (SIK3, Homo sapiens, UniProt Q9Y2K2)", "assay": "enzyme activity, inhibitor", "IC50 [µM]": "> 0.5"}
{"Structure (SMILES)": "Cc1cnc(N)c(S(=O)(=O)N(C)CC(=O)Nc2ccc(N3CCOCC3)c(Cl)c2)c1", "target": "Dihydrolipoyl dehydrogenase", "assay": "enzyme activity, inhibitor", "conditions": "together with: 50 nM enzyme", "IC50 [µM]": 0.056}
{"Structure (SMILES)": "O=C1CC(=O)N(c2ccccc2)c2cc(Cl)ccc2N1", "target": "Gabrg2/Gabra2, with β3 subunit (Rattus norvegicus, UniProt P18508+P23576)", "assay": "binding, radioligand displacement", "system": "HEK293 cell membranes", "conditions": "together with: 1 nM [3H]flunitrazepam", "IC50 [µM]": "0.59 ± 0.12"}
{"Structure (SMILES)": "CC1(C)OC2OC(C(CCO)NC(=O)Nc3cccc(NC(=O)NC(CCO)C4OC5OC(C)(C)OC5C4OCc4ccccc4)c3)C(OCc3ccccc3)C2O1 (stereo not shown)", "target": "DNA ligase A", "assay": "enzyme activity, inhibitor", "conditions": "1 h, 25 °C, 10% DMSO, together with: 50 µM NAD+", "IC50 [µM]": "85 ± 1.3"}
{"Structure (SMILES)": "COc1cc(N2CCN(C)CC2)ccc1Nc1ncc2c(n1)N(C1CCC1)C(=O)N(c1c(C)cccc1C)C2", "target": "Serine/threonine-protein kinase SIK1 (SIK1, Homo sapiens, UniProt P57059)", "assay": "enzyme activity, inhibitor", "IC50 [µM]": 0.007}
{"Structure (SMILES)": "CCOC(=O)CC(NC(=O)Nc1ccc(NC(=O)NC(CC(=O)OCC)C2OC3OC(C)(C)OC3C2OCc2ccccc2)cc1)C1OC2OC(C)(C)OC2C1OCc1ccccc1 (stereo not shown)", "target": "DNA ligase A", "assay": "enzyme activity, inhibitor", "conditions": "1 h, 25 °C, 10% DMSO, together with: 50 µM NAD+", "IC50 [µM]": "225 ± 6.2"}
{"Structure (SMILES)": "Cc1cc(S(=O)(=O)N(C)CC(=O)Nc2ccc(N3CCOCC3)c(Cl)c2)c2[nH]ncc2c1", "target": "Dihydrolipoyl dehydrogenase", "assay": "enzyme activity, inhibitor", "conditions": "together with: 50 nM enzyme", "IC50 [µM]": 0.029}
{"Structure (SMILES)": "C=CCC(NC(=O)C1CN(C(=O)C(CC(=C)C)NC(=O)C=C)CC1c1cccc(C(F)(F)F)c1)C(=O)NC (stereo not shown)", "target": "Replicase polyprotein 1ab, main protease (rep, Human coronavirus HKU1, UniProt P0C6X2)", "IC50 [µM]": "> 100"}
{"Structure (SMILES)": "CC1(C)OC2OC(C(CCO)NCCCNC(CCO)C3OC4OC(C)(C)OC4C3OCc3ccccc3)C(OCc3ccccc3)C2O1 (stereo not shown)", "target": "DNA ligase A", "assay": "enzyme activity, inhibitor", "conditions": "1 h, 25 °C, 10% DMSO, together with: 50 µM NAD+", "IC50 [µM]": "46.2 ± 1.6"}
{"Structure (SMILES)": "O=c1[nH]c2cc(Cl)cc(Cl)c2c(O)c1Sc1nnnn1-c1ccc(O)cc1", "target": "Genome polyprotein protease", "assay": "enzyme activity, inhibitor", "IC50 [µM]": "> 50"}
{"Structure (SMILES)": "Nc1ccc(/C=C/C(=O)N2CCc3c(oc4c(-c5ccc(F)cc5)cc(-c5ccc(C(=O)N6CCC(F)(F)CC6)cn5)cc34)C2)cn1", "target": "Serine/threonine-protein kinase PAK 4, phosphorylated (PAK4, Homo sapiens, UniProt O96013)", "assay": "phosphorylation, Western blot, measured: phospho-PAK4", "system": "MIA PaCa-2", "conditions": "72 h", "IC50 [µM]": 0.84}
{"Structure (SMILES)": "COc1cc(CC(C#N)C(O)c2ccccc2)cc(I)c1O (stereo not shown)", "target": "Pup deamidase/depupylase (dop, Mycolicibacterium smegmatis, UniProt A0QZ49)", "assay": "enzyme activity, inhibitor", "conditions": "30 min preincubation, together with: Pup-Glu(AMC) substrate, ATP 1 mM", "IC50 [µM]": "> 100"}
{"Structure (SMILES)": "CC1C(=NOCc2cc(-c3ccc(Cl)cc3)no2)C(C)C(c2ccc(Br)cc2)OC1c1ccc(Br)cc1 (stereo not shown)", "target": "DNA gyrase subunit A/DNA gyrase subunit B (Mycobacterium tuberculosis, UniProt P9WG45+P9WG47)", "IC50 [µM]": 19.2}
{"Structure (SMILES)": "COc1ccc2cc(CCC(=O)CC(Nc3ccc(C(=O)O)cc3)c3ccc(Cl)cc3)ccc2c1 (stereo not shown)", "target": "Isocitrate lyase (icl, Mycobacterium tuberculosis, UniProt P9WKK7)", "assay": "enzyme activity, inhibitor, absorbance", "IC50 [µM]": 110}
{"Structure (SMILES)": "C=CC(=O)NC(CC(=C)C)C(=O)N1CC(C(=O)NC(Cc2ccco2)C(=O)NC)C(c2cccc(C(F)(F)F)c2)C1 (stereo not shown)", "target": "Replicase polyprotein 1ab main protease", "IC50 [µM]": "> 100"}
{"Structure (SMILES)": "Cc1cnc(N)c(S(=O)(=O)N(C)CC(=O)Nc2ccc(N3CCN(C)CC3)c(Cl)c2)c1", "target": "Dihydrolipoyl dehydrogenase", "assay": "enzyme activity, inhibitor", "conditions": "together with: 50 nM enzyme", "IC50 [µM]": 0.128}
{"note": "A few entries again:"}
{"Structure (SMILES)": "COc1cc(CN2CCN(C)CC2)ccc1Nc1ncc2c(n1)N(C13CC4CC(CC(C4)C1)C3)C(=O)N(c1c(C)cccc1C)C2", "target": "Serine/threonine-protein kinase SIK3 (SIK3, Homo sapiens, UniProt Q9Y2K2)", "assay": "enzyme activity, inhibitor", "IC50 [µM]": "> 0.5"}
{"Structure (SMILES)": "C=C(C)C1C2OC(=O)C1C1(O)CC3OC34C(=O)OC2C14C (stereo not shown)", "target": "GABA-A receptor; GABA-A site (alpha1/beta2 interface) (Homo sapiens, UniProt P14867+P47870, V284A)", "assay": "ion current, two-electrode voltage clamp", "conditions": "oocytes", "IC50 [µM]": 24.5}
{"Structure (SMILES)": "Cc1cnc(N)c(S(=O)(=O)N(C)CC(=O)Nc2ccc(N3CCOCC3)c(Cl)c2)c1", "target": "Dihydrolipoyl dehydrogenase", "assay": "enzyme activity, inhibitor", "conditions": "together with: 50 nM enzyme", "IC50 [µM]": 0.056}
